Measured values collected from several papers.
Compare with care: the assays were run in different laboratories. ± gives the spread as reported.

Structure (SMILES) | assay | system | setting | how to read | measurement | value
COCCN(CC(N)=O)C(=O)CN(CCOC)C(=O)CN(CCOC)C(=O)CN(CCOC)C(=O)CN(CCOC)C(=O)CN(CCOC)C(=O)CN(CCC(=O)O)C(=O)CN(CCCCN)C(=O)CN(CCOC)C(=O)CN(CCOC)C(=O)CN(CCOC)C(=O)CN(CCOC)C(=O)CN(CCOC)C(=O)CN(CCOC)C(=O)C(Cc1ccccc1)NC(C)=O (stereo not shown) | potentiometric titration with KOH | 100 x 1 mM KCl |  |  | pKa of COOH group | 4.3
CCCC[C@H](NC(=O)CN1CCC(NC(=O)CN2CCN(CC(=O)O)CCN(CC(=O)O)CCN(CC(=O)O)CC2)CC1)C(=O)N[C@H]1CC(=O)NCCCC[C@@H](C(N)=O)NC(=O)[C@H](Cc2c[nH]c3ccccc23)NC(=O)[C@H](CCCNC(=N)N)NC(=O)[C@@H](Cc2ccccc2)NC(=O)[C@H](Cc2c[nH]cn2)NC1=O | biodistribution | C57BL/6J mouse male tumour-bearing | 2 h post injection, unblocked | relative to: tumour over bone | tumour to bone ratio | 39.6 ± 11.9
COc1cc(/C=C/C(=O)N2CCc3ccccc3C2)ccc1O[11CH3] | PET-CT imaging | C57BL/6 mouse, male, kidney | intravenous, dynamic scan over 60 min |  | maximum uptake | 18.7 ± 0.13 %ID/cc
CC(C)[C@H](NC(=O)[C@@H]1CCCN1C(=O)[C@H](CCCNC(=N)N)NC(=O)[C@H](CS)NC(=O)[C@H](Cc1c[nH]c2ccccc12)NC(=O)[C@H](CCCNC(=N)N)NC(=O)[C@@H](Cc1ccccc1)NC(=O)[C@H](Cc1c[nH]cn1)NC(=O)[C@H](CCC(=O)O)NC(=O)[C@H](CS)NC(=O)[C@H](CS)NC(=O)[C@@H]1CC(=O)N[C@@H](CCCNC(=N)N)C(=O)NCC(=O)N[C@@H](CC(=O)O)C(=O)N[C@H](Cc2ccc(O)cc2)C(=O)N1)C(N)=O [technetium-99m labelled] |  | C57 mice B16/F1 melanoma female | iv, 2 h, added: NDP-MSH blockade | relative to: tumour over lung | tumour-to-tissue ratio | 2.26
CCCC[C@H](NC(=O)CNC(=O)CNC(=O)CN1CCN(CC(=O)O)CCN(CC(=O)O)CCN(CC(=O)O)CC1)C(=O)N[C@H]1CC(=O)NCCCC[C@@H](C(N)=O)NC(=O)[C@H](Cc2c[nH]c3ccccc23)NC(=O)[C@H](CCCNC(=N)N)NC(=O)[C@@H](Cc2ccccc2)NC(=O)[C@H](Cc2c[nH]cn2)NC1=O [indium-111 labelled] |  | C57 mouse, female, B16/F1 melanoma | intravenous, 0.037 MBq, 4 h |  | tumour to liver ratio | 31
Oc1ccc2ccccc2c1/N=N/c1ccccc1 |  | extracted rat blood QC samples | 0.5 µg/L, 8 h, room temperature, short-term stability |  | measured concentration | 0.505 µg/L
CC(NC(=O)OC1OC(C(=O)O)C(O)C(O)C1O)c1cc(Cl)ccc1Cn1c(=S)[nH]c(=O)c2[nH]ccc21 (stereo not shown) |  | Sprague-Dawley rat, male, plasma | oral, 125 mg/kg/day | relative to: rat over human 15 mg | exposure ratio | 1.5
CC[C@H](C)[C@H](NC(=O)[C@@H]1CCCN1C(=O)CNC(=O)[C@H](Cc1ccccc1)NC(=O)[C@H](CC(N)=O)NC(=O)[C@H](CC(N)=O)NC(=O)[C@H](CO)NC(=O)[C@H](CO)NC(=O)[C@H](Cc1c[nH]cn1)NC(=O)[C@@H](NC(=O)[C@H](CC(C)C)NC(=O)[C@H](Cc1ccccc1)NC(=O)[C@H](CC(N)=O)NC(=O)[C@H](C)NC(=O)[C@H](CC(C)C)NC(=O)[C@H](CCCNC(=N)N)NC(=O)[C@H](CCC(N)=O)NC(=O)[C@@H](NC(=O)[C@H](C)NC(=O)[C@@H]1CSSC[C@H](NC(=O)[C@@H](N)CCCCN)C(=O)N[C@@H](CC(N)=O)C(=O)N[C@@H]([C@@H](C)O)C(=O)N[C@@H](C)C(=O)N[C@@H]([C@@H](C)O)C(=O)N1)[C@@H](C)O)C(C)C)C(=O)N[C@@H](CC(C)C)C(=O)N[C@@H](CO)C(=O)N[C@@H](CO)C(=O)N[C@H](C(=O)N[C@@H](CC(N)=O)C(=O)N[C@H](C(=O)NCC(=O)N[C@@H](CO)C(=O)N[C@@H](CC(N)=O)C(=O)N[C@H](C(=O)N[C@@H](Cc1ccc(O)cc1)C(N)=O)[C@@H](C)O)C(C)C)[C@@H](C)O | ion mobility mass spectrometry | nitrogen drift gas | monomer ion charge +3 |  | collision cross section | 550 ± 7.8 Å²
C[C@H](CN(C)Cc1ccccc1)NC(=O)c1ccc(-c2noc(C(F)(F)[18F])n2)cc1 | PET | Sprague-Dawley rat, female, brain and heart | intravenous, 1 min | relative to: brain SUV over heart SUV | brain-to-heart ratio | 0.8 ± 1.62
C[C@@H]1CC[C@@H]([C@@](O)(CNCc2ccc(F)cc2)COCc2ccc(F)cc2)[C@H](OCc2ccc(F)cc2)C1 | PAMPA-GI | phosphatidylcholine-cholesterol membrane | 500 µM, 4 h, pH 6.5, 37 °C, 5% DMSO |  | permeability | 22.7 ± 0.8 ×10⁻⁶ cm/s
Cc1ccc(OCC(=O)O)cc1 |  | Sprague-Dawley rat, female, plasma | oral, 100 mg/kg/day of parent drug, day 1, 90-day repeated dosing |  | Tmax | 3 h
CN1CCN(Cc2ccc([C@H]3C[C@@]4(C)[C@@H](CC[C@@]4(O)C(F)(F)C(F)(F)F)[C@@H]4CCC5=CC(=O)CCC5=C43)cc2)CC1 |  | rat liver microsomes | 100 % absorption assumed |  | maximal oral bioavailability | 88%
CC(C)(O)c1ncc([S@](N)(=O)=NC(=O)Nc2c3c(cc4c2CCC4)CCC3)s1 |  | human, plasma | oral, 10 mg, single dose, fasted, healthy volunteers |  | AUC(0-t) | 9440 ng·h/mL
O=c1nc(NO)ccn1[C@@H]1O[C@H](CO)[C@@H](O)[C@H]1O | RT-PCR, refers to: CYP3A9 | normal rat, liver | oral, 80 mg/kg twice daily, 5 days | relative to: untreated rats | mRNA level | < 0.1 fold
CN1CCC(N[C@@H]2CCc3[nH]c4c(C(N)=O)ccc(-c5ccccc5Cl)c4c3C2)CC1 |  | BALB/c mice | oral, 10 mg/kg |  | AUC(0-t) | 437 ng·h/mL
CC(C)(C)[C@H](NC(=O)[C@H](CCONC(=N)N)NC(=O)Cc1ccc(CNC(=N)N)cc1)C(=O)N[C@@H](CCONC(=N)N)C(=O)NCc1ccc(C(=N)N)cc1 |  | human liver microsomes 0.7 mg/mL | 50 µM, 5 min, pH 7.4 |  | depletion | 7.6%
CC(=O)Nc1cc(C(=O)O)cc(O)c1O |  | human, male, faeces | oral, 100 mg | relative to: dose | radioactivity excreted in faeces | 9.29%
CCCC[C@H](NC(=O)CNC(=O)CNC(=O)CN1CCN(CC(=O)O)CCN(CC(=O)O)CC1)C(=O)N[C@H]1CC(=O)NCCCC[C@@H](C(N)=O)NC(=O)[C@H](Cc2c[nH]c3ccccc23)NC(=O)[C@H](CCCNC(=N)N)NC(=O)[C@@H](Cc2ccccc2)NC(=O)[C@H](Cc2c[nH]cn2)NC1=O [copper-64 labelled] |  | female C57 mouse, B16/F1 melanoma | intravenous, 0.037 MBq, 0.5 h | relative to: tumour over heart | uptake ratio | 14.1
CCCCNCC(=O)O | shake flask | water | 24 h |  | logP | -1.97
C#CCOc1ccc(/C=C2\SC(=O)N(CC(=O)NCc3ccccc3)C2=O)cc1 | inverse Kirkwood-Buff integrals | binary solvent mixture | 298.15 K, mole fraction x1 0.50 |  | Kirkwood-Buff integral G2,3 | -366 cm³/mol
CCCC[C@@H]1NC(=O)[C@@H](NC(=O)[C@H](CCC(=O)O)NC(=O)CNC(=O)CN2CCN(CC(=O)O)CCN(CC(=O)O)CCN(CC(=O)O)CC2)CCCCNC(=O)C[C@@H](C(N)=O)NC(=O)[C@H](C(C)C)NC(=O)[C@@H]2CCCN2C(=O)[C@H](CCCNC(=N)N)NC(=O)CNC(=O)[C@H](Cc2c[nH]c3ccccc23)NC(=O)[C@H](CCCNC(=N)N)NC(=O)[C@@H](Cc2ccccc2)NC(=O)[C@H](Cc2c[nH]cn2)NC(=O)[C@H](CCC(=O)O)NC1=O [gallium-67 labelled] |  | C57 mice with B16/F1 melanoma, heart | intravenous, 2 h |  | tissue uptake | 0.04 ± 0.04 %ID/g
O=c1c(O)cccn1CCCN1CCN(CCCn2cccc(O)c2=O)CC1 |  | hydroxypyridinone groups |  | relative to: pKa3 over pKa2 | pKa difference | 2
COCC1CN(C2CCN(c3cc(OC)c(Nc4ncc(Br)c(Nc5ccc6c(c5P(C)(C)=O)OCCO6)n4)cc3C)CC2)C1 |  | human | oral, 10 to 240 mg once daily, safety set, all grades |  | patients with elevated serum creatinine | 22.2%
O=C([O-])CN1CCN(CC(=O)[O-])CCN(CC(=O)NCCc2ccc3c(c2)C2C=CCC2C(c2cc4c(cc2Br)OCO4)N3)CCN(CC(=O)[O-])CC1.[111In+3] (stereo not shown) |  | mouse, Hec50 endometrial tumour, uterus | 1 h post injection |  | tissue uptake | 0.73 ± 0.09 %ID/g
CC1=CC(C)(C)N=C2C=CC(=O)C=C12 | LC-MS/MS | laying hens, kidney | oral in feed, 50 mg/kg feed ethoxyquin, 56 days |  | tissue residue | 6.2 ± 2.7 ng/g
CNC(=O)N[C@]1(C)CCC[C@@]2(C)C3CC[C@@]4(C)C[C@]3(CCC21)CC4=O (single isomer, unassigned) |  | processed rat plasma | 40 ng/mL, 24 h, 4 °C, autosampler stability | relative to: nominal concentration | relative error | -0.8%
N=C(N)NCCC[C@@H]1NC(=O)[C@H](Cc2c[nH]c3ccccc23)NC(=O)[C@@H](CC2CCCCC2)NC(=O)[C@@H]2CCCN2C(=O)[C@@H](NC(=O)CCc2ccccc2)CCCNC1=O |  | C57BL/6J mice, brain | intraperitoneal, 1 mg/kg, two-compartment model |  | apparent central volume (V1/F) | 0.08 µg/(ng/g)
COc1cc(NC(C)=O)c2c(c1O)-c1c(OC)c(OC)cc3c1C(C2)N(C)CC3 (stereo not shown) |  | rat kidney homogenate | 100 µg/mL, 24 h, room temperature, post-preparative storage |  | remaining compound | 92.3 ± 2.4%
